Measured values pooled from the literature.
Parts stem from different laboratories: compare values within a part only.

Sample 1
Target: Prothrombin, mature alpha-thrombin (F2, Homo sapiens, UniProt P00734)
Method: aptamer microarray, sandwich
Molecule type: DNA with 2'F-ANA
Matrix: in vitro
Concentration: 200 nM
Setting: whole 15-mer aptamer, many near background
Together with: Cy3 exosite-II aptamer, 400 nM
Reading: higher = stronger binding
Oligonucleotide | mean fluorescence intensity [a.u.]
GGTTGGTGTGGTTGG (2'F-ANA at 1 3 4 5 6 7 8 9 10 11 14) | 58.8
GGTTGGTGTGGTTGG (2'F-ANA at 1 2 4 7 8 9 10 12 13) | 55.4
GGTTGGTGTGGTTGG (2'F-ANA at 3 4 5 6 8 9 10 12 14) | 45.8

Sample 2
Target: Ras GTPase-activating protein-binding protein 1, C-terminal RGG region (G3BP1, Homo sapiens, UniProt Q13283)
Chain of UniProt Q13283 (whole entry, looked up): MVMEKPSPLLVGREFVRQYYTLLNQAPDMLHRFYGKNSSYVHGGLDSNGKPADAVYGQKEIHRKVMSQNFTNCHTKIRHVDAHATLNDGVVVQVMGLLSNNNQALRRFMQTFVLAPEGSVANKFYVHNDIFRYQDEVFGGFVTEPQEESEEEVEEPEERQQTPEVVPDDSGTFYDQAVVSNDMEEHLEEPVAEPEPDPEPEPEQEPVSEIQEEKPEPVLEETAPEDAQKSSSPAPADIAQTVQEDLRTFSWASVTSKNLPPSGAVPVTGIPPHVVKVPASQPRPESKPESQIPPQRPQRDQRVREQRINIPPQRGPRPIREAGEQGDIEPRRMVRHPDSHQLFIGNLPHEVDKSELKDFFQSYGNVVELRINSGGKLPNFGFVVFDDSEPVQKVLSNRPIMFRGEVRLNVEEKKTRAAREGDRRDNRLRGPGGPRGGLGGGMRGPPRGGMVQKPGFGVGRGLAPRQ
Method: RNA Bind-n-Seq
Molecule type: RNA
Matrix: in vitro
Concentration: 1 µM
Setting: whole 134-nt RNA, ends assumed
Together with: 150 mM KCl
Baseline: input library
Reading: higher = stronger binding
Shared flanks, not repeated: GGGAGUUCUACAGUCCGACGAUC … UGGAAUUCUCGGGUGUCAAGG
Oligonucleotide | log2 enrichment
UCCUGUGCUACACAUCGUAUGUACCGAAUCAAAGUGUGUGUGUGAAAUGUGUGUGUGAAAAAAGUAUUAUGUUACGCCGUUCGGAUCUGC | 0.109
UGGCCCUGGUGGCAUGCGGGGAGGAAGAGGUGGCCUCAUGGAUCGUGGUGGUCCCGGUGGAAUGUUCAGAGUUGGCCGUGGUGGAGACAG | 3.39
CUGUGCUACACAUCGUAUGUACCGAAUCGGGUUUUUUUGGGGUUUUUUUGGGGUUUUUUUGGAAAGUAUUAUGUUACGCCGUUCGGAUCU | -0.825
CACAGACAACACGCACCCACACAGACACAAAGGGAAGGGGUUGGGAUGGGGACAGGGUGCACAGCAGGGCGGGGUAGGACCCCAGCCCCU | -0.288
GCAGGAAGUAAAAACAAAUGGAAAUGCUUCGGAUAGUGGCAGGGGUGGGGGUUGCUAAGGAAAGGGUGGGAUGGGUGUGGGUAAAGAGUU | 1.14
UAACUUUAGAGGAGGAUCUGAUGGAUAUGGCAGUGGACGUGGAUUUGGGGAUGGCAAUAAUGGGUAUGGAGGAGGACCUGGAGGUGGCAA | -0.909

Sample 3
Target: Histone acetyltransferase KAT6A, both winged helices, GST fusion (KAT6A, Homo sapiens, UniProt Q92794, residues 1-181)
Method: protein binding microarray
Molecule type: double-stranded DNA, one strand shown
Matrix: in vitro
Concentration: not given
Setting: 8-mer, flanks averaged, mean of 2 arrays, mostly near background
Baseline: not given
Reading: higher = stronger binding
Construct (chain): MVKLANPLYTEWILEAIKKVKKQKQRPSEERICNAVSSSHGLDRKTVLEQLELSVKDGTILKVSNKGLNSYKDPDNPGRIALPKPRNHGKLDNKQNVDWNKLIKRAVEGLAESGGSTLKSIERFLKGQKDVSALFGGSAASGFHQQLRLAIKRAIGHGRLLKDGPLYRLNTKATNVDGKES
Oligonucleotide | E-score
GTATGGCA | -0.0572
AGAAGCAT | -0.148
ATAGAGGA | -0.283
ATTTGCCC | -0.0462

Further values, each from its own experiment
Substance | target | assay | system | conditions | scale | measurement | result
PhoQ, residues 284 288 289 292 302 303 SLKLQV | PhoP, residues 12 14 15 18 19 NHFIF (Escherichia coli, UniProt P23836) | Sort-seq, refers to: YFP reporter | E. coli | PhoQ-PhoP variant library, together with: 10 µM Mg2+ | baseline: high Mg2+ state, higher = stronger signaling | fold induction | 2.66
